Experimental data gathered from unrelated publications.
Every numbered part comes from another study and shows a few of its results, in no order. Positions count from the first letter of the parent shown.

Set 1 — technique: RNA Bind-n-Seq; molecule type: RNA; medium: in vitro; concentration: 20 nM; setting: 6-mer, flanks averaged, single round; with: 150 mM KCl; baseline: input library; reading: higher = stronger binding
Target: TAR DNA-binding protein 43, full length, His tag (TARDBP, Homo sapiens, UniProt Q13148, residues 1-414)
Oligonucleotide	6-mer enrichment (R)
GUGGGA	4.25
GUCGGU	1.25
AUAUAG	0.663
UUCAUU	0.558
ACCACU	0.623
ACCGCU	0.634
UGAGAC	0.832
CGCAAA	0.693
CCUUCA	0.588
AGGCCA	0.909
UCGUAC	0.585
UUCUCA	0.534
GGCCCA	0.971
GAAUGG	1.94
UUAAAC	0.569
UCUGUC	0.584
AACCCA	0.617
AACAGU	0.68
CAACCC	0.627
GACGAC	0.881
GUCUGU	0.831
UACCUG	0.633
CAAGAA	0.773
GUGGGG	7.74
ACAGAC	0.678

Set 2 — technique: aptamer microarray, sandwich; molecule type: DNA with 2'F-ANA; medium: in vitro; concentration: 200 nM; with: Cy3 exosite-II aptamer, 400 nM; reading: higher = stronger binding; oligonucleotide: GGTTGGTGTGGTTGG
Target: Prothrombin, mature alpha-thrombin (F2, Homo sapiens, UniProt P00734)
Setting: whole 15-mer aptamer, many near background
Modification	mean fluorescence intensity [a.u.]
2'F-ANA at 2 3 4 5 6 7 9 11 12 14 15	51.1
2'F-ANA at 1 2 4 9 10 11 12 14 15	65.9
2'F-ANA at 1 3 8 11 14	89.2
2'F-ANA at 2 3 5 6 8 9 14	51.5
2'F-ANA at 4 6 9 10 11 13 15	88.6
2'F-ANA at 1 2 3 4 6 8 9 10 12 15	76.2
2'F-ANA at 1 3 6 7 8 11 12 13 15	443
2'F-ANA at 1 3 4 6 7 8 10 11 13 15	59.1
2'F-ANA at 1 5 7 10 11 14	87.9
2'F-ANA at 2 4 5 6 7 8 14	45.3
2'F-ANA at 1 2 4 5 7 8 9 10 12 15	49.4
2'F-ANA at 1 6 9 10	53.2
2'F-ANA at 3 4 6 7 12 13 14 15	304
2'F-ANA at 1 5 9 10 11 15	48.3
2'F-ANA at 4 6 7 9 10	90
2'F-ANA at 1 5 6 7 8 9 10 13	46.3

Set 3 — target: CCNB2, cyclin fold, Cln2 fusion (human); technique: yeast growth competition, sequencing; medium: yeast; setting: weak parent motif; baseline: not given; reading: higher = stronger binding
Parent: ORC1 docking peptide (human); PRARKRLELGNLG
Variant	normalised enrichment score
PRNRKRLELGNLG [A3N]	1.02
PRARKRLEMGNLG [L9M]	0.688
ERARKRLELGNLG [P1E]	0.736
PRARSRLELGNLG [K5S]	0.611
PRARKRLELGNHG [L12H]	0.71
PHARKRLELGNLG [R2H]	0.215
PDARKRLELGNLG [R2D]	0.317
PRARKRHELGNLG [L7H]	0.126
PRARKILELGNLG [R6I]	0.784
PRAEKRLELGNLG [R4E]	0.442
PRARKMLELGNLG [R6M]	0.754
PRARKRLELGNNG [L12N]	0.514
PRSRKRLELGNLG [A3S]	0.737
QRARKRLELGNLG [P1Q]	0.634
PRAGKRLELGNLG [R4G]	0.256
PRVRKRLELGNLG [A3V]	0.325
PRARKRLELGALG [N11A]	0.307
PLARKRLELGNLG [R2L]	0.0851
PRARKRLELGNLL [G13L]	-0.131
PRARKRLELWNLG [G10W]	1.2
KRARKRLELGNLG [P1K]	1.31
GRARKRLELGNLG [P1G]	-0.48
PRARKFLELGNLG [R6F]	0.874
PWARKRLELGNLG [R2W]	0.958

Set 4 — technique: protein-binding microarray; molecule type: double-stranded DNA, one strand shown; medium: in vitro; concentration: 250 nM; setting: 60-bp whole probe; with: salmon DNA 0.4 mg/ml; baseline: random background probes; reading: higher = stronger binding; shared flanks, not repeated: GCCTAGCAC … GTCTTGATTCGCTTGACGCTGCTG
Target: Interferon regulatory factor 7, full length, phosphomimetic (IRF7, Homo sapiens, UniProt Q92985, residues 1-503, S101K/S471D/S472D/S475D/S476D/S477D/S483D/S484D/S487D)
Chain of UniProt Q92985 (whole entry, unmodified, looked up): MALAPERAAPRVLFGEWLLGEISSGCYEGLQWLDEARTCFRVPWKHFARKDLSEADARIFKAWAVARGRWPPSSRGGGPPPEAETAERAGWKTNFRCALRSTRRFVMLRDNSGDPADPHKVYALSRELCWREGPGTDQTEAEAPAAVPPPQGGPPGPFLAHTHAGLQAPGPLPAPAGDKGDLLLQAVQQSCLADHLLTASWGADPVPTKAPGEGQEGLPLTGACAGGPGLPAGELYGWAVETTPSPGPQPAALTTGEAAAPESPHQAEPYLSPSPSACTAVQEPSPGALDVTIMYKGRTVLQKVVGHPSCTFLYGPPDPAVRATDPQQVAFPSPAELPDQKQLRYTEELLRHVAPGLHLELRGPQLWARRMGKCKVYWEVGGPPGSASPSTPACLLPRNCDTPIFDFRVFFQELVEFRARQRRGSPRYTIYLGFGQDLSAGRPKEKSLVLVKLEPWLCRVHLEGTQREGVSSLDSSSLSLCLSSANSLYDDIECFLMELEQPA
Oligonucleotide	log fluorescence
TCATTTTTTACTTCGGGACTGTGCTAG	0.907 z-score
AGCAGAAAGTGAAATACCCTCGTGCTA	-0.555 z-score
GACGGTATCGAACTGGGGACGTGCTAG	0.333 z-score
GACGAACTGAGTATCGGGACGTGCTAG	-0.29 z-score
GACGGTTTCGGGTTTCGGGAGGTGCTA	11.4 z-score
TTAGATTTCAGACTAGATTAGTGCTAG	0.234 z-score
GACGGACTGGACTTTCGGGACGTGCTA	-0.477 z-score
GACGATATCAGACTGGATACGTGCTAG	-0.263 z-score
TTAGGTTTCAGACTGGATTAGTGCTAG	0.545 z-score
TTAGCTCTCAGTTTCGATTAGTGCTAG	7.12 z-score
TTAGGTTTTGACTTTCGGTTAGTGCTA	2.84 z-score
GGGCATTTGGTTAGCGTATAGTGCTAG	-0.697 z-score
GACAAACTGAGACTGGAGACGTGCTAG	0.0538 z-score
GACGATTTCAGACTGCAGACGTGCTAG	0.237 z-score
TCAGTCATCCATCTGAAACTGTGCTAG	-0.217 z-score
CACCCCGCCCCTCCTTGGCCGTGCTAG	-0.321 z-score
TTAGATCTCCTACTGCTTTAGTGCTAG	0.0826 z-score
GACGGTTCAGGTTTCGGGACGTGCTAG	2.63 z-score
TCAGCTGTTTTTCTCACACTGTGCTAG	0.338 z-score

Set 5 — technique: protein binding microarray; molecule type: double-stranded DNA, one strand shown; medium: in vitro; concentration: not given; baseline: not given; reading: higher = stronger binding
Target: Histone acetyltransferase KAT6A, winged helix 1, GST fusion (KAT6A, Homo sapiens, UniProt Q92794, residues 1-85)
Setting: 8-mer, flanks averaged, mean of 2 arrays, mostly near background
Residues (chain): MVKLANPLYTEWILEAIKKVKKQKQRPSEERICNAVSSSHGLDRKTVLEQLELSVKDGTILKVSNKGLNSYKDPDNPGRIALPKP
Oligonucleotide	E-score
CCTACTAA	-0.019
CATCTCGG	-0.02
CAACCGAG	-0.0426
CCCTACGC	0.193
CCACGGTA	0.283
CCACATGA	-0.188
GCTCGGCC	0.284
GGGGGGAC	-0.00562
AACTCCTT	-0.00024
ATTTCATA	-0.274
ACACAACG	0.0262
AGCCAGTA	-0.12
CTGTCTCA	-0.15
ATAATGGG	-0.207
AATACTTG	-0.148
AATCGCAG	-0.121
GGGTGTAC	0.0511
CGAAGAAC	0.0146
AATTTTTA	-0.123

Excerpt of the above (set 4):
Oligonucleotide	log fluorescence
GACGGTATCGAACTGGGGACGTGCTAG	0.333 z-score
TCAGTCATCCATCTGAAACTGTGCTAG	-0.217 z-score
TTAGATCTCCTACTGCTTTAGTGCTAG	0.0826 z-score
TTAGGTTTCAGACTGGATTAGTGCTAG	0.545 z-score
CACCCCGCCCCTCCTTGGCCGTGCTAG	-0.321 z-score
TCAGCTGTTTTTCTCACACTGTGCTAG	0.338 z-score
GACGAACTGAGTATCGGGACGTGCTAG	-0.29 z-score
TTAGATTTCAGACTAGATTAGTGCTAG	0.234 z-score
GACAAACTGAGACTGGAGACGTGCTAG	0.0538 z-score
AGCAGAAAGTGAAATACCCTCGTGCTA	-0.555 z-score
GACGATTTCAGACTGCAGACGTGCTAG	0.237 z-score
